Published values gathered from unrelated publications.
Every numbered part comes from another study and shows a few of its results, in no order.

Series 1 — technique: competition protein-binding microarray; molecule type: double-stranded DNA, one strand shown; sample: in vitro; tested at: 2 µM; together with: Pho4 competitor, 0.05 µM; direction: higher = stronger binding
Target: Centromere-binding protein 1, full length, His-tagged (CBF1, Saccharomyces cerevisiae, UniProt P17106, residues 1-351)
UniProt P17106, sequence (whole entry, looked up): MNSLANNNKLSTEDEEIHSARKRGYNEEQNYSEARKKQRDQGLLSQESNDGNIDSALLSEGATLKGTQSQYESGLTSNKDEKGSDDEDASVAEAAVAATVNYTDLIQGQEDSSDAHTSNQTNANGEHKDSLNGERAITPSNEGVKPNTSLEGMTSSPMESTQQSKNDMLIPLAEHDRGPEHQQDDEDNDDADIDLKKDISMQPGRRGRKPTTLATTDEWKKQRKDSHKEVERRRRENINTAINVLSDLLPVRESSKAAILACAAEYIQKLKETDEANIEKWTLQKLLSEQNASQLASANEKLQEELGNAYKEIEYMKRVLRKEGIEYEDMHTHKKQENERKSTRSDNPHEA
Notes: whole 60-bp probe, lowest competitor level
`AAAGCGGTAATTTGTCACAAGACTTCACATATCTATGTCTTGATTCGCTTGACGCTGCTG` has a fluorescence intensity of 156 a.u.
`CTTCTGTAAATTTGTCACATGACTTGACGCGCCCCGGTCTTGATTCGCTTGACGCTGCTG` gave a fluorescence intensity of 2640 a.u.
With `CAAATGGGTGGGTGGCGCGTGGCAGGGACTTCCCTAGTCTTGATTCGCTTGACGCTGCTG` the fluorescence intensity was 55.2 a.u.
`CCGGTTTTTATTCCTCCCGTGGTCGTTGTCTCTACCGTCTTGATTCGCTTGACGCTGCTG` has a fluorescence intensity of 95.9 a.u.
With `AACTCTTTTGAAAATTACGTGCCAGAAAACCCAACCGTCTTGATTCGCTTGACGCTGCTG` the fluorescence intensity was 109 a.u.

Series 2 — technique: aptamer microarray, sandwich; molecule type: DNA with 2'F-ANA; sample: in vitro; tested at: 200 nM; together with: Cy3 exosite-II aptamer, 400 nM; direction: higher = stronger binding; strand: GGTTGGTGTGGTTGG
Target: Prothrombin, mature alpha-thrombin (F2, Homo sapiens, UniProt P00734)
Notes: whole 15-mer aptamer, many near background
`2'F-ANA at 1 3 5 7 13 14 15` — result for “mean fluorescence intensity”: 52 a.u.
`2'F-ANA at 3 6 7 11 15` — result for “mean fluorescence intensity”: 839 a.u.
Under “mean fluorescence intensity”, `2'F-ANA at 2 4 5 7 9 12 14` is recorded as 49.1 a.u.
`2'F-ANA at 3 4 5 7 10 11 13 15`: “mean fluorescence intensity” 47.8 a.u.
`2'F-ANA at 2 5 8 9 10 14 15`: “mean fluorescence intensity” 47.7 a.u.
`2'F-ANA at 7 9 10 12` — result for “mean fluorescence intensity”: 228 a.u.

Series 3 — technique: protein-binding microarray; molecule type: double-stranded DNA, one strand shown; sample: in vitro; tested at: 250 nM; notes: 60-bp whole probe; together with: salmon DNA 0.4 mg/ml; reference: random background probes; direction: higher = stronger binding; constant ends, left off below: GCCTAGCAC … GTCTTGATTCGCTTGACGCTGCTG
Target: Interferon regulatory factor 7, full length, phosphomimetic (IRF7, Homo sapiens, UniProt Q92985, residues 1-503, S101K/S471D/S472D/S475D/S476D/S477D/S483D/S484D/S487D)
Residues (chain): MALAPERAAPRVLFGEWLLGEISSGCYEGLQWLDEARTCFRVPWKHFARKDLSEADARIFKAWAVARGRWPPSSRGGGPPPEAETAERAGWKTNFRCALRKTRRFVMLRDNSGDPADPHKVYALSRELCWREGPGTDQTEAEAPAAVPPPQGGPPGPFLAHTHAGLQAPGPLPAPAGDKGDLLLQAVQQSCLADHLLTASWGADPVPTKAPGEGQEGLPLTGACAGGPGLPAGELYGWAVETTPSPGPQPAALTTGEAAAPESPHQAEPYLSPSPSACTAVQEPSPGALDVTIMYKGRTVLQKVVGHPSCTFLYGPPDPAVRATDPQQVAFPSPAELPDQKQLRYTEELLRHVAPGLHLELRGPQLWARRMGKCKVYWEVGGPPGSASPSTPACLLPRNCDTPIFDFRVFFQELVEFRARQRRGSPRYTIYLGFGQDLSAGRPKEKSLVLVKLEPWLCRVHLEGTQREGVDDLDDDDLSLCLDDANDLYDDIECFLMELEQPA
For `GACGGTCACCTTCTCCTGACGTGCTAG`, the log fluorescence was -0.393 z-score.
`TCAGGTTTCCTTTCCCTTTAGTGCTAG` gave a log fluorescence of 4.8 z-score.
The log fluorescence of `TTAAGTCTCGGACTGGGTTAGTGCTAG` is reported as 0.441 z-score.
`TTAGGTCACCTACTGCTTTAGTGCTAG` gave a log fluorescence of -0.036 z-score.
With `TTAGAGTTCGGGACTGGATTAGTGCTA` the log fluorescence was -0.376 z-score.
The log fluorescence of `TTAGGTTTCCTAATCCTTTAGTGCTAG` is reported as 2.25 z-score.
With `GACGGTTTCCGTCTCGGGACGTGCTAG` the log fluorescence was 2.2 z-score.

Other studies, line by line
The fold induction of `PhoQ, residues 284 288 289 292 302 303 TLMATV` is reported as 11.8 (PhoP, residues 12 14 15 18 19 LWHVM (Escherichia coli, UniProt P23836); Sort-seq, measured: YFP reporter; E. coli; PhoQ-PhoP variant library, together with: 10 µM Mg2+; reference: high Mg2+ state, higher = stronger signaling).
